Measurements from different studies.
Each numbered part is a random draw from the data of one study; scales do not carry over between parts. Changes are numbered by the printed parent chain.

Sample 1
Target: Protein C-ets-1 (ETS1, Homo sapiens, UniProt P14921, residues 1-441, full length assumed)
Method: protein-binding microarray
Form: double-stranded DNA, one strand shown
Matrix: in vitro
Tested at: not given
Setting: k-mer, scored over probes, only values ≥0.25
Reading: higher = stronger binding
Quantity: E-score
Target sequence (chain): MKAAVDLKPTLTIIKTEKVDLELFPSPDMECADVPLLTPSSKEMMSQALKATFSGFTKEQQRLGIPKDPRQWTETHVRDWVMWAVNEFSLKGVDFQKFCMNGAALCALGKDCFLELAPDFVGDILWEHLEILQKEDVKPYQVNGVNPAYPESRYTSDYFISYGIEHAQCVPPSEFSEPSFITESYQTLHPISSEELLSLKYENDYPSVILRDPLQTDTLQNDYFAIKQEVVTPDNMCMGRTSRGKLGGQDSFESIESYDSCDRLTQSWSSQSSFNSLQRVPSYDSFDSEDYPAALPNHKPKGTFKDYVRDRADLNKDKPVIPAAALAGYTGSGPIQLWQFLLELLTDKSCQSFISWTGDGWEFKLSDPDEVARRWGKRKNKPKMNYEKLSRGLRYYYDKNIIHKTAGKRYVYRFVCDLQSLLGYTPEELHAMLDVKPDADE
GTGGCGGA: 0.385
GCGGAACC: 0.339
GCATCCCC: 0.259
ATACGGAA: 0.39
GGATGTTA: 0.414
ATCCGGAG: 0.433
GGAAATAA: 0.416
CACCGGTG: 0.33
GGAAGCAC: 0.396
CACCATCC: 0.306
CCCCCGGA: 0.393
TGCTGGAA: 0.267
AGGTTCCG: 0.318
ATCCTGCC: 0.371
CGGACATC: 0.364

Sample 2
Target: Prothrombin, mature alpha-thrombin (F2, Homo sapiens, UniProt P00734)
Method: aptamer microarray, sandwich
Form: DNA with 2'F-ANA
Matrix: in vitro
Tested at: 200 nM
Setting: whole 15-mer aptamer, many near background
Added: Cy3 exosite-II aptamer, 400 nM
Reading: higher = stronger binding
Quantity: mean fluorescence intensity
Sequence: GGTTGGTGTGGTTGG
2'F-ANA at 2 4 5 6 8 11 13 14 15: 50.1 a.u.
2'F-ANA at 1 2 5 6 7 8 9 13 14: 48.4 a.u.
2'F-ANA at 1 3 6 8 10 11: 83.9 a.u.
2'F-ANA at 2 4 5 6 8 9 10 12 13 14 15: 47.1 a.u.
2'F-ANA at 3 4 6 7 8 10 13: 203 a.u.
2'F-ANA at 2 5 6 7 8 9 10 11 13: 49.4 a.u.
2'F-ANA at 1 3 5 7 9 11 14: 48.7 a.u.
2'F-ANA at 1 2 4 5 6 7 8 12 14 15: 59.4 a.u.
2'F-ANA at 1 2 5 6 8 10 11 12 13 15: 51.7 a.u.
2'F-ANA at 1 5 7 10 11 13 14: 44.3 a.u.
2'F-ANA at 2 3 4 5 7 9 10 12: 86.1 a.u.
2'F-ANA at 2 5 6 7 8 10 11 13 14 15: 53.4 a.u.
2'F-ANA at 3 4 5 9 11 12: 166 a.u.
2'F-ANA at 2 6 7 8 9 10: 129 a.u.
2'F-ANA at 3 4 6 10 11 14: 183 a.u.
2'F-ANA at 3 4 6 7 8 11 14 15: 268 a.u.
2'F-ANA at 5 6 8 12: 203 a.u.
2'F-ANA at 2 3 6 7 9 10 14: 275 a.u.
2'F-ANA at 3 4 5 7 8 10 11 15: 61.3 a.u.
2'F-ANA at 2 3 6 7 8 9 11 12 13 14 15: 357 a.u.
2'F-ANA at 1 5 6 7 8 9 13 14 15: 51.5 a.u.

Sample 3
Target: RNA binding protein fox-1 homolog 2, RRM domain, GST-SBP tag (RBFOX2, Homo sapiens, UniProt O43251-10, residues 100-194)
Method: RNA Bind-n-Seq
Form: RNA
Matrix: in vitro
Tested at: 365 nM
Setting: natural RNA segment, single round, ends assumed
Reference: no-protein control
Reading: higher = stronger binding
Quantity: RBNS enrichment (R)
Residues (chain): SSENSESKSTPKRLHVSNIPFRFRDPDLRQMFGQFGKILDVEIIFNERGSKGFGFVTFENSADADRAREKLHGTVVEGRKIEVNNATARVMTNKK
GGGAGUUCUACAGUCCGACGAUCAUUAUUUUCUAUCAUACAGUUUUCAUUGGUUAUAUGAGUAUGUCUACCCAAUAAAUCACUGAAUUUAUGUUGCUGGCGUUUUGUUGGUGACUCUUCAUGGUAGGUACCAUUGGAAUUCUCGGGUGCCAA: 0.4
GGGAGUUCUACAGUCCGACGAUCGCUCCCUCCCUCCCUGUAAGCUUUCACUCACCAGCGUGUUUAUUUACACAUCCAUUACUUAUUCACUCAUCAGACUGUCAUGAAAUAUUUGUGUUGUUCCAGGGCCUGUGUGGAAUUCUCGGGUGCCAA: 0.918
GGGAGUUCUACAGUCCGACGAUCGACCCAGCUGUCUGGCACUCAAACGGUCUCUGCAGCCACAGUUUUAUCAAGUAUCCUGUAUGUGUUCCUUUGUAAACCGGUACUCAUGAAUGAGGGAAAGUCUGAUGCUAUGGAAUUCUCGGGUGCCAA: 2.41
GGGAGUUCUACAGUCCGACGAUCGGUGUCGUGUUCUAUGAUAAUGAAAGCAUCAGGAAAGCUUUUGUACUUAGUGGUUUUCUCUAUUUUGAAAUUUUUUGAUCAAAAACUGAUUAGUGAAUAUAGUUUGGAGUUGGAAUUCUCGGGUGCCAA: 1.29
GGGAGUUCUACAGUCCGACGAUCCAUUUACCCAGUGGACAUGAGCGCUGCUGAAUUUCAUAUAAGGGUCUUCACAGAAAAUACAUGUUCCUUCCCCGUGGUUCCUGUACUCAUUUUAACGUGUUGUUUAUUCUUGGAAUUCUCGGGUGCCAA: 0.44
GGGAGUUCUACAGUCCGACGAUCUGAGGCCCUGCUGAGCCAGCAAAAUGCUUUCCAGUUCCUCUUUGGCUCUCACGAUGCCCACCUAGGCUUUCUGGCCAGUGUACUGAACAGUGCUACAAGCCCUCAGGAGCUGGAAUUCUCGGGUGCCAA: 0.206
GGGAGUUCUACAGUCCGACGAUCCCAUUUUAAAGUACAGUGCACAUAACUCCCUAGGCUGUUCCAACCUGACUAUUUGUAAAUGCUUUAGAGUUUUAAAUUAACACUUCUGUUGCUAAAUACUAUUUAUGUAAUGGAAUUCUCGGGUGCCAA: 0.595
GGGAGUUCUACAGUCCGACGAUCUCCAUUUUAUAGAUGAGGAAACUGAGGCAGUAUGACUGAGGCCGAGAGCAGUGGUUAAGACAGACUUUGGGAUCAAAUCACCCUAGGUGCGGGCAGGUUUCUAGGCUGCUUGGAAUUCUCGGGUGCCAA: 0.516
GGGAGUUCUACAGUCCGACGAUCCCUCUGUGAGCUGUUCCCUCGCCUGAAUUCAUUGCAUCUUACACCUUGGCAUGCCUUGCUCACAAUACUCAUUAUGCUGUGUGGGAUUUCCUGAUUACUAGAAGCUGACCUGGAAUUCUCGGGUGCCAA: 28.8
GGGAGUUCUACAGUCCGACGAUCAUUACUUAACCACUGCUGUCCCUCGGUCCCUUUUUCCUAAACGGGUUUAGUUCUGUCUUUUUUCUCCUUUUUUCUAAAUGCUGGUAAAUAUUUACAUUCAGCCAGGGAAGUGGAAUUCUCGGGUGCCAA: 0.477
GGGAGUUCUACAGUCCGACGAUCAGGAACGUACUUAUGUAGGACAGAGGUUAGCAACCUGUGGGUCAUGACCCCUUUGGGGAUCAAACUACGCUUUCACAGGGGUCACCAAGGACCAUUGGAAAACACAGAUUUGGAAUUCUCGGGUGCCAA: 0.409
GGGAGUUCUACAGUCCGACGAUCGAUGGGGAAAACAAGAAGGACAAAUAGGAUCCUGCAUUGUUUUUGCUUCCUCUCCUGUCAAUUUCAGGAACCUUUGAGGCCCAGUUCCAGCUAUAACCACAAUCCUUGCCUGGAAUUCUCGGGUGCCAA: 0.802

Sample 4
Target: CCNA1, cyclin fold, Cln2 fusion (human)
Method: yeast growth competition, sequencing
Matrix: yeast
Setting: strong parent motif
Reference: not given
Reading: higher = stronger binding
Quantity: normalised enrichment score
Parent: RBL2 docking peptide (human); STTRRRLFVENDS
STTRRRLFVWNDS [E10W]: 0.348
STTRRRLFGENDS [V9G]: 0.493
STTRRRLFVETDS [N11T]: 0.556
STTRRRMFVENDS [L7M]: 0.199
STTDRRLFVENDS [R4D]: 0.137
STTRRRLFVENDL [S13L]: 0.683
STTRMRLFVENDS [R5M]: 0.323
STTRRRLFVENES [D12E]: 0.434
STTCRRLFVENDS [R4C]: 0.655
GTTRRRLFVENDS [S1G]: 0.725
STTRRRLFVENDH [S13H]: 0.6
STTRRRLFVGNDS [E10G]: 0.301
STTRRRLFVSNDS [E10S]: 0.464

Sample 5
Target: UBE2V1 UBC core domain (UniProt Q13404)
Chain of UniProt Q13404 (whole entry, looked up): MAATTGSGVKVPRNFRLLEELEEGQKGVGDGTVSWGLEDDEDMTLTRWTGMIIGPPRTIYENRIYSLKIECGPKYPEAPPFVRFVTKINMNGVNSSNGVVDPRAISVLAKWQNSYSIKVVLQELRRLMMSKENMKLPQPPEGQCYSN
Method: yeast two-hybrid
Matrix: yeast
Setting: mostly zero background
Reference: not given
Reading: higher = stronger interaction
Quantity: lacZ reporter activity
B1: ZMIZ2 RING domain (UniProt Q8NF64); chain GTIPGTPGPNGEDGVEQTAIKVSLKCPITFRRIQLPARGHDCRHIQCFDLESYLQLNCERGTWRCPVCNKTALLEGLEVDQYMLGILIYIQNSDYEEITIDPTCSWK
B2: MAP3K1 RING domain (UniProt Q13233); chain NSIKDEEEQMCPICLLGMLDEESLTVCEDGCRNKLHHHCMSIWAEECRRNREPLICPLCRSKWRSHDFYS
FDGDVDPDLKCALCHKVLEDPLTTPCGHVFCAGCVLPWVVQEGSCPARCRGRLSAKELN (PDZRN3 RING domain (UniProt Q9UPQ7)): 0
NLSELTPYILCSICKGYLIDATTITECLHTFCKSCIVRHFYYSNRCPKCNIVVHQTQPLY (PCGF6 RING domain (UniProt Q9BYE7)): 0
AVPSGLEENLCKICMDSPIDCVLLECGHMVTCTKCGKRMNECPICRQYVIRAVHVF (RFFL RING domain (UniProt Q8WZ73)): 0
B1 (ZMIZ2 RING domain): 0
GSDDEEIPFKCFICRQSFQNPVVTKCRHYFCESCALQHFRTTPRCYVCDQQTNGVFNPA (RNF113A RING domain (UniProt O15541)): 0
B2 (MAP3K1 RING domain): 0
KLRKLKEAMLCMVCCEEEINSTFCPCGHTVCCESCAAQLQSCPVCRSRVEHVQHVY (MYLIP RING domain (UniProt Q8WY64)): 0
KETIKKTTKPCPRCHVPVEKNGGCMHMKCPQPQCRLEWCWNCGCEWNRVCMG (PRKN RING domain (UniProt O60260)): 0

Sample 6
Target: ABI1, truncated, D143A, DHFR fusion (Arabidopsis thaliana, UniProt P49597)
Method: DHFR PCA, dose-response
Matrix: yeast
Setting: Hill fit, mean, not affinity
Added: (+)-ABA, dose series
Reading: lower = more sensitive
Quantity: ABA EC50
Parent: PYL1, truncated, DHFR fusion (Arabidopsis thaliana, UniProt Q8VZS8); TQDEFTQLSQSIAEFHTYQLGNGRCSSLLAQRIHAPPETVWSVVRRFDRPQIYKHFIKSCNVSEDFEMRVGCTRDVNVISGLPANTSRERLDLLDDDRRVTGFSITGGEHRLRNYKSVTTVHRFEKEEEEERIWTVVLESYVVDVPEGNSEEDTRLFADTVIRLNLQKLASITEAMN
L82S: 298 µM
E130L: 4.64 µM
E67A: 2.82 µM
R111F: 93.9 µM
D65Y: 11.3 µM
E127A: 1.96 µM
K58Q: 2.69 µM
F157M: 20.1 µM
F5V: 2.14 µM
Q7Y: 1.81 µM
R45C: 129 µM
R88G: 120 µM
G71R: 271 µM
I57Q: 180 µM
G81H: 376 µM
I133K: 2.65 µM
I12K: 34.1 µM
G81R: 395 µM
N165Q: 420 µM
Q10M: 1.7 µM
V118S: 81.1 µM
S27N: 4.71 µM
K126H: 1.79 µM
N149K: 197 µM
Q10L: 3.37 µM
